Published values collected from several papers.
Each numbered part is a random draw from the data of one study; scales do not carry over between parts. Several values in a cell are separate wells, animals, samples, runs or records.
Chain of UniProt Q16832 (whole entry, looked up): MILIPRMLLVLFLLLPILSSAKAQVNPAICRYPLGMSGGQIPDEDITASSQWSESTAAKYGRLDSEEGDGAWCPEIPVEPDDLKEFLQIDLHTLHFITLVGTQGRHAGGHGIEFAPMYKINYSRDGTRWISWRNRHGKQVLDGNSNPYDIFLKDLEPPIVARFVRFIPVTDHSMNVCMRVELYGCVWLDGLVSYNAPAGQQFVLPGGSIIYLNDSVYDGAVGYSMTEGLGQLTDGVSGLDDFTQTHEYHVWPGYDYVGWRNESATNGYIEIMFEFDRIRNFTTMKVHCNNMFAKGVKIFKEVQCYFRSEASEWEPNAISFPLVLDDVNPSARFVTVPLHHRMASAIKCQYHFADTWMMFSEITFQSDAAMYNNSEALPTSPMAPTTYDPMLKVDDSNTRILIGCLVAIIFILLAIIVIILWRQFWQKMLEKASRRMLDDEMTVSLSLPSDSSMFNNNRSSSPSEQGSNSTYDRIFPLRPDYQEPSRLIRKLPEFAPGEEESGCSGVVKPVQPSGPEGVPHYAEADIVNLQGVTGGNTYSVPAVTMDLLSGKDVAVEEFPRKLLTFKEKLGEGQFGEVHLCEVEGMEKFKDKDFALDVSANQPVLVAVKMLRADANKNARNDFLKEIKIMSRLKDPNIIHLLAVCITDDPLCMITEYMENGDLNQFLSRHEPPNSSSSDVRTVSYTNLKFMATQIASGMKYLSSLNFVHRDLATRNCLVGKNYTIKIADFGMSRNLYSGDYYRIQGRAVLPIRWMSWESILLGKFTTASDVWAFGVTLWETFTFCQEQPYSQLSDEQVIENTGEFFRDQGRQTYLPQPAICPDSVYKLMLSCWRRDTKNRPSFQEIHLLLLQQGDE
Chain of UniProt P27037 (whole entry, looked up): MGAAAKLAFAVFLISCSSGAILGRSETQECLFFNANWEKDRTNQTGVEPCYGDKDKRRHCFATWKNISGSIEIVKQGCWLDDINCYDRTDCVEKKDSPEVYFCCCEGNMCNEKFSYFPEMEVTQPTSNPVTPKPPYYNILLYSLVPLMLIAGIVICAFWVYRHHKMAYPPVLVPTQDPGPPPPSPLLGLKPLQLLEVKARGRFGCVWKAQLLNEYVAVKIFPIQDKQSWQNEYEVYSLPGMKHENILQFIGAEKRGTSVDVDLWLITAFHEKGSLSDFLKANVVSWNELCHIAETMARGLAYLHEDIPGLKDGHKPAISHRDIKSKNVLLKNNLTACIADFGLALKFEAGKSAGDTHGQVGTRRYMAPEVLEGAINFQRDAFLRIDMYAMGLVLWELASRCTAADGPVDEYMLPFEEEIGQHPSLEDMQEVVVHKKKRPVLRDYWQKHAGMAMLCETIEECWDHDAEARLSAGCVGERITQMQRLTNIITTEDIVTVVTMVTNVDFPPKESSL
Chain of UniProt Q96RR4 (whole entry, looked up): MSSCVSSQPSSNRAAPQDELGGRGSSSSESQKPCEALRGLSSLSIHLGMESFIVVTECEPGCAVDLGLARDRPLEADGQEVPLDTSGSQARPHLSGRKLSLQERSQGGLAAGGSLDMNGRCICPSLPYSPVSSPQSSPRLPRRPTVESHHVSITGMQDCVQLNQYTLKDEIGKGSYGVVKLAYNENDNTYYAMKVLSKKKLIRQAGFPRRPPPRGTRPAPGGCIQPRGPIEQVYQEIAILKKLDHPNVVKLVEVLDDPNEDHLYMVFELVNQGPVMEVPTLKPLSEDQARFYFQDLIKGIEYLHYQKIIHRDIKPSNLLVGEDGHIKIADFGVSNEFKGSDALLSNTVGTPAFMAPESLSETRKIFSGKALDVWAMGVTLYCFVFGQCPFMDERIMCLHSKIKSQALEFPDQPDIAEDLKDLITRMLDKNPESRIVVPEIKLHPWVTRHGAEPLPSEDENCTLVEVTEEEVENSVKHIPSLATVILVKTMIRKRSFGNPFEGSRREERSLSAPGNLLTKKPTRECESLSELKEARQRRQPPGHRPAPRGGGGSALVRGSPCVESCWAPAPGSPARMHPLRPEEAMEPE

Series 1 — target: panel of 300 human kinases; concentration: 0.5 µM; direction: higher = more selective
SMILES | Gini score
Cc1[nH]c(/C=C2\C(=O)Nc3ccc(S(=O)(=O)N(C)c4cccc(Cl)c4)cc32)c(C)c1C(=O)N1CCN(C)CC1 | 0.63
C[C@@H](N)[C@H]1CC[C@H](C(=O)Nc2ccncc2)CC1 | 0.61
Cc1nc(-c2ccccc2)c(-c2ccncc2)o1 | 0.71
Nc1ccc2ncnc(NCCc3ccc(Oc4ccccc4)cc3)c2c1 | 0.73

Series 2 — effect on: cell-free assay; technique: competition with immobilised ligand; concentration: 1 µM
SMILES: CN(C)C(=O)Cn1cc(-c2nc([C@@](C)(c3ccc(-c4cnc(N)nc4)cc3)C3CC3)no2)cn1
target | remaining binding [%]
Activin receptor type-2A (ACVR2A, Homo sapiens, UniProt P27037) | 81
Discoidin domain-containing receptor 2 (DDR2, Homo sapiens, UniProt Q16832) | 89
Calcium/calmodulin-dependent protein kinase kinase 2 (CAMKK2, Homo sapiens, UniProt Q96RR4) | 100

Further values, each from its own experiment
SMILES | tested on | test system | conditions | scale | endpoint | result
c1ccc2c(-c3nn4c(-c5ccncc5)nnc4s3)c[nH]c2c1 | α-galactosidase (human, wild type) | healthy dermal fibroblasts | 0.5 µM, unit not given | reference: DMSO | remaining activity | 1.49 and 1.62 and 1.53 and 1.31 and 1.27 and 1.63 and 1.4 and 1.19
CCC[C@H]1NC(=O)CSC[C@@H](C(=O)OCC)N(C)C(=O)[C@H](CC(C)C)NC(=O)[C@@H](C)N(C)C(=O)[C@@H](CC(C)C)NC(=O)[C@H](C)N(C)C(=O)[C@H]2CCCN2C(=O)[C@H](CC(C)C)NC(=O)CN(CCC)C1=O | – | hydrocarbon/water | – | – | logD | 0.86

Repeated from above (further values, each from its own experiment):
SMILES | tested on | test system | conditions | scale | endpoint | result
CCC[C@H]1NC(=O)CSC[C@@H](C(=O)OCC)N(C)C(=O)[C@H](CC(C)C)NC(=O)[C@@H](C)N(C)C(=O)[C@@H](CC(C)C)NC(=O)[C@H](C)N(C)C(=O)[C@H]2CCCN2C(=O)[C@H](CC(C)C)NC(=O)CN(CCC)C1=O | – | hydrocarbon/water | – | – | logD | 0.86
